Measured values of several laboratories.
Lines come from different studies, so protocols differ. Several values in a cell are separate wells, animals, samples, runs or records. Numbers after ± are the reported error.

The Cmax of `Fc1cccc(-n2cc(-c3ccccc3)nc2NCc2ccc(C(F)(F)F)c(Br)c2)c1` is reported as 167000 ng/g (CD-1 mouse, male, intestine; intraperitoneal, 25 mg/kg).
For `O=S(=O)(NCc1ccncc1)c1ccc(C2CCCCC2)cc1`, the Cmax was 0.131 µM (C57BL/6J mouse, male, peripheral fat; intraperitoneal, 0.3 mg/kg).
The Cmax of `Cc1[nH]nc2c1N=C(c1ccccc1Cl)c1cnc(N3CCOCC3)cc1N2` is reported as 149 ng/mL (nude mouse, HCC1806 xenograft, plasma; oral, 10 mg/kg once daily).
`CC[C@H](C)[C@H](NC(=O)[C@H](CCCNC(=N)N)NC(=O)[C@H](Cc1c[nH]cn1)NC(=O)[C@@H](N)[C@@H](C)O)C(=O)N[C@@H](CC(C)C)C(=O)N[C@@H](CCCNC(=N)N)C(=O)N[C@@H](CCCNC(=N)N)C(=O)N[C@@H](CC(C)C)C(=O)N[C@@H](Cc1ccccc1)C(=O)N[C@@H](CC(N)=O)C(=O)N[C@@H](CC(C)C)C(=O)N[C@@H](CS)C(N)=O` gave a Cmax of 0.007 µM (male C57BL/6J mouse, plasma; intraperitoneal, 5 mg/kg).
With `C/C(N)=N/C(=N\S(=O)(=O)c1ccc(C(F)(F)F)cc1)N1C[C@H](c2ccccc2)C(c2ccc(Cl)cc2)=N1` the Cmax was 9830 ng/mL (C57BL/6 mouse male, adipose tissue; intravenous, 10 mg/kg).
`O=C(c1ccccc1)N1C(c2ccc(OCC3CCN(CCCF)C3)cc2)c2ccc(O)cc2CC12CC2` (centres unmarked) has a Cmax of 752 ng/mL (C57BL/6J mouse, plasma; oral, 25 mg/kg, group mean).
`CN[C@H](CC(C)C)C(=O)N[C@H]1C(=O)N[C@@H](CC(N)=O)C(=O)N[C@H]2CN[C@H]3C(=O)N[C@H](C(=O)N[C@H](C(=O)NCCCNC(=N)N)c4cc(O)cc(O)c4-c4cc3ccc4O)[C@H](O)c3ccc(c(Cl)c3)Oc3cc2cc(c3O[C@@H]2O[C@H](CO)[C@@H](O)[C@H](O)[C@H]2O[C@H]2C[C@](C)(NCc3ccc(-c4ccc(Cl)cc4)cc3)[C@H](O)[C@H](C)O2)Oc2ccc(cc2Cl)[C@H]1O` gave a Cmax of 179000 ng/mL (mouse; intravenous, 50 mg/kg).
`Cc1ccc(=O)n(-c2ccc(O)cc2)c1` gave a Cmax of 23.4 ± 7.82 µM (BALB/c mouse, plasma; oral, 1.0 mmol/kg).
With `O=C1CCC(N2Cc3cc(C(=O)O)c(F)cc3C2=O)C(=O)N1` (centres unmarked) the Cmax was 242 ± 119 ng/mL (male CD-1 mouse, plasma; oral, 10 mg/kg of parent drug).
`O=c1c(-c2cnn(-c3ccc(Cl)cc3)c2)c(C(F)(F)F)oc2c(O)c(O)ccc12` gave a Cmax of 35.6 µM (mouse; intraperitoneal, 100 mg/kg, DMSO vehicle).
`Cc1nn(-c2nc3c(F)cc(F)cc3s2)c(O)c1C(c1ccc(C(F)(F)F)cc1)c1c(C)nn(-c2nc3c(F)cc(F)cc3s2)c1O` gave a Cmax of 4320 ng/mL and 4370 ng/mL and 4550 ng/mL (ICR mouse, plasma; intraperitoneal, 10 mg/kg).

A few entries again:
`O=c1c(-c2cnn(-c3ccc(Cl)cc3)c2)c(C(F)(F)F)oc2c(O)c(O)ccc12` gave a Cmax of 35.6 µM (mouse; intraperitoneal, 100 mg/kg, DMSO vehicle).
`Cc1nn(-c2nc3c(F)cc(F)cc3s2)c(O)c1C(c1ccc(C(F)(F)F)cc1)c1c(C)nn(-c2nc3c(F)cc(F)cc3s2)c1O` gave a Cmax of 4320 ng/mL and 4370 ng/mL and 4550 ng/mL (ICR mouse, plasma; intraperitoneal, 10 mg/kg).
